Published values pooled from the literature.
Each numbered part is a random draw from the data of one study; scales do not carry over between parts.

Set 1
Target: Histone acetyltransferase KAT6A, winged helix 1, GST fusion (KAT6A, Homo sapiens, UniProt Q92794, residues 1-85)
Technique: protein binding microarray
Molecule type: double-stranded DNA, one strand shown
Sample: in vitro
Concentration: not given
Notes: 8-mer, flanks averaged, mean of 2 arrays, mostly near background
Reference: not given
Direction: higher = stronger binding
Measurement: E-score
Target sequence (chain): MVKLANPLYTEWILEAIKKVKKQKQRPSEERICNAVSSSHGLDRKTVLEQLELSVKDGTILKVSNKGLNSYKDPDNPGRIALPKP
CTGTAGAA: -0.299
GGCCAGTA: -0.0696
GCACAGAC: 0.026
GTTCAAAA: -0.158
ACTAATGC: 0.0531
TCCATAGA: -0.0489
CGATGTCA: -0.0156
AAGATAGC: -0.0612
CAGTACCC: -0.0739
CTCTGCAG: -0.287
CCTAAGTC: -0.186
CGGTGCTC: 0.0635
CGCAGTAC: 0.147
ACATTAGG: -0.105
GACGTCTA: -0.0587
GCGCGTCC: 0.392
TATTTCCA: -0.195
TGTGCACA: -0.0289
AGGTCTGA: -0.0966
TAGGCGAA: -0.027
GCCTTCCC: 0.0913
ATGACCTC: -0.0337
TAAGTCAA: -0.214
ATTTGCTA: -0.218
ATAACGGG: 0.0938

Set 2
Target: Sal-like protein 4, full length isoform B (SALL4, Homo sapiens, UniProt Q9UJQ4-2, residues 1-616)
Technique: universal PBM
Molecule type: double-stranded DNA, one strand shown
Sample: in vitro
Concentration: not given
Notes: 8-mer, flanks averaged, mean of replicates
Direction: higher = stronger binding
Measurement: E-score
GGACGTCC: -0.134
GTGGCCCA: -0.277
AAATGTTC: 0.218
AGGCTAAA: 0.0436
CAACTAAG: -0.112
AGTAGGAT: -0.00052
AACTTCGA: 0.017
AAAGAGTA: 0.187
ATCCCCCC: -0.362
CAGAAAAA: 0.0262
GTGTGTAA: 0.125
ACAAACTC: 0.0247
ACGAATCG: -0.0659
CTAGGTAA: 0.0559
AAGCTTCC: 0.0432
GATCAAGC: -0.09
AGTCGGGC: -0.317
CGCAAACG: -0.0737

Set 3
Target: Interferon regulatory factor 7, full length, phosphomimetic (IRF7, Homo sapiens, UniProt Q92985, residues 1-503, S471D/S472D/S475D/S476D/S477D/S483D/S484D/S487D)
Technique: protein-binding microarray
Molecule type: double-stranded DNA, one strand shown
Sample: in vitro
Concentration: 2200 nM top
Notes: 60-bp whole probe
Together with: salmon DNA 0.4 mg/ml
Reference: random background probes
Direction: higher = stronger binding
Measurement: fitted relative affinity
All sequences stand within: GCCTAGCAC … GTCTTGATTCGCTTGACGCTGCTG
Residues (chain): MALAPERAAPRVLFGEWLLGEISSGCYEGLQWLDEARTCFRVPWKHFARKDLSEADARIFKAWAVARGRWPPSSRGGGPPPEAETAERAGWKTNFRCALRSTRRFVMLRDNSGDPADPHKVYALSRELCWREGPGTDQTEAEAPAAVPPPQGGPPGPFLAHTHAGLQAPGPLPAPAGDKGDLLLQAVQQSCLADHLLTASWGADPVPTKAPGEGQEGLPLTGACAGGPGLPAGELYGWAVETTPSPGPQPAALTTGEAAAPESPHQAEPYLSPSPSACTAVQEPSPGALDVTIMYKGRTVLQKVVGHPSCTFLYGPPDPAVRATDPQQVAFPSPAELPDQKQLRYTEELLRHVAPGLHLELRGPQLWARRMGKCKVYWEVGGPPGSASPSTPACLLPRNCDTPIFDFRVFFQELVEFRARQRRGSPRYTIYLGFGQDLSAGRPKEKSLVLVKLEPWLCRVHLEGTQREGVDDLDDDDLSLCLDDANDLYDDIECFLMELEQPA
AACCGCCTCTCCCTTAGACGGTGCTAG: 1.03 z-score
TTAAAACTGAGTATCGATTAGTGCTAG: -0.457 z-score
TTAGGTTTCGACACTGGGATAGTGCTA: 2.28 z-score
TATCTTATCCTATCAGTTTAGTGCTAG: 1.43 z-score
CACTAGTTTCTTTTCTTTTCGTGCTAG: 7.21 z-score
TTAGGTTTCATTCTCCTTTAGTGCTAG: 3.29 z-score
TCATATTTGTTTCCATTACTGTGCTAG: 2.67 z-score
GACGAACTGAGTCGCGAGACGTGCTAG: -0.0711 z-score
GACGGTCTCCTAGTGCTGACGTGCTAG: -0.106 z-score
GACGGTCTCGGTTTCGGAACGTGCTAG: 4.21 z-score
GACGGAATCGGTATCGGGACGTGCTAG: 0.335 z-score
TTAGATTTCGAGACTGGATTAGTGCTA: 0.419 z-score
GACGGTCTCCTTTTTCTGACGTGCTAG: 1.25 z-score
ATATGTATATATGTGTATATGTGCTAG: 1.13 z-score
GACGGTATCGGTCTCGGCACGTGCTAG: -0.0257 z-score
TTAGGAGTGGGTATCGGTTAGTGCTAG: -0.0451 z-score
CTAGTTTTTACTTTCTGAATGTGCTAG: 4.45 z-score
GACGGTATCGGAACTGGGGACGTGCTA: -0.469 z-score
GCTGGTCTCTAACTCAAGATGTGCTAG: 0.255 z-score
TTAGGTTTCGACACTGTGTTAGTGCTA: 2.19 z-score
TTAGGACTGGGGTTTGGGTTAGTGCTA: -0.183 z-score
TCAACTCTTCTTTTTTTACTGTGCTAG: 1.04 z-score
GACGGACCGCTACTGCTGACGTGCTAG: -0.303 z-score
AGATTTTTCTCAACCGTTGTGTGCTAG: 0.716 z-score
TCAGCTTTGCAGATAAAACTGTGCTAG: -0.127 z-score

Set 4
Target: RNA binding protein fox-1 homolog 2, RRM domain, GST-SBP tag (RBFOX2, Homo sapiens, UniProt O43251-10, residues 100-194)
Technique: RNA Bind-n-Seq
Molecule type: RNA
Sample: in vitro
Concentration: 365 nM
Notes: natural RNA segment, single round, ends assumed
Reference: no-protein control
Direction: higher = stronger binding
Measurement: RBNS enrichment (R)
All sequences stand within: GGGAGUUCUACAGUCCGACGAUC … UGGAAUUCUCGGGUGCCAA
Residues (chain): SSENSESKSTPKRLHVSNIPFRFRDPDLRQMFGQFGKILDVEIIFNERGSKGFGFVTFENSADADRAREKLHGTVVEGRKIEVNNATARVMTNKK
CAUAGUUUCUAUGAGCGAUAUAAAGAGUUCCUGUUUCCCUUCACUGGGCCUAAGCCUUUCUGCAUUACACUUGAAGCCUUCAGUCAUUUCCUACCACUUAUUACAACAGU: 0.778
GAAACCACUUCAUCAGAAUGUGUGAGUCCUGGGGAUGCAUGGGGCACAGUUGAUGCUGCUUGGGACACGUUUCUUAGAGGGCUUACAGUAUGUAAAUAAUUGACAUUGGU: 6.25
CUCGGCCGUCUAGCAGCUCCCAGAACCCGCGGCUGCCACCGCAUCCUUAUAAACCUGUCAGCACGCAUGAGGGUGUCUGUGUUCAGGGAAAUGAAUGACUAAUACCAUUA: 5.7
CGCCCCAACCCCAAUUUCUGGAGCUGCAGCCGUCCCGCGCCCCACCCAAGGUGGGCGCCUUCCCCUCUUGUGCCCAGGGCGGUGGGCGUGGUGUCCACCCGCCCCUCCUG: 0.331
CAAAUUGGCAUCUCAUUCUACCUCUAAACCACUGGGUUGGUAUGGGUAUGAAUGCUCAGAGCUCACCCGAGCAUGCUGGUAGAGUCAGGGUGUGUAUUUAGUCACCAACC: 3.01
GGAAGCGUCUUGGGGAGGGUGGUAGAAGCACAAAAGAAUCACAGAAUUAUUUUCUAAGCAAAAUAACACUUGUUUGUUUAUGGCCCAUGGAUCAUAGCUUCCUGUCCCCA: 0.528
CCUCAGGUCAAGGGGAGGGAGGCAGCCUCAGUGCAGACUUUAUAGGAUUGUCCUCUUGGUGGACCGGAGUCCUGUCCUUCUCUGCCAAAGAGUUUUACCAAGAUGAAAAG: 0.348
GGUGCUGCCAGCUGCUCCCAAUGUGCCGAUGUCCGUGGGCAGAAUGACUUUUAUUGAGCUCUUGUUCCGUGCCAGGCAUUCAAUCCUCAGGUCUCCACCAAGGAGGCAGG: 0.241
UCUAUUGGAGUCCUGAAUAAAUGCUGCUCUUUGGCUUCCAAAACCCUGCUCUCUCUGGCCUUGGGUCAUGAGGGUAUAAGGAAUAAACAUGGUGAGCUUGUUCUCCUUUU: 0.35
UCUAGAGUUAGGAAUGAGUGUUUAUGGUGUUGCUUAUAGAACAACUCAGGUAAUCUCCAUUUCUGGUUUUAUAUUUUCUGUACAAACUGCCUGGGUUUUAUUUUUCUAAU: 0.659
UCUGGCCUUGUAUUUCACACCCUGCUCAGUAUGGCUAGCCAGCAGUCCUGAGUAGGAGUCCAGGACUCCCACUGUCUCAAUCUGCAAAUUGUUCCUAUCCAGGUUCAGGG: 0.403
AGGUUUUUGAUCUUGCACUUUGCGAUGCAAAUUAUCUGUGUGGAGGGGAAGCGAAUGUUUCUGAACAUAAGGCUCUAAGACUCGUGUGAGGCUGAGAGUGAAUGGCAGUG: 0.307

Excerpt of the above (set 3):
TTAGATTTCGAGACTGGATTAGTGCTA: 0.419 z-score
GACGGTATCGGAACTGGGGACGTGCTA: -0.469 z-score
GACGGAATCGGTATCGGGACGTGCTAG: 0.335 z-score
GACGGTCTCCTAGTGCTGACGTGCTAG: -0.106 z-score
TTAGGTTTCATTCTCCTTTAGTGCTAG: 3.29 z-score
CACTAGTTTCTTTTCTTTTCGTGCTAG: 7.21 z-score
ATATGTATATATGTGTATATGTGCTAG: 1.13 z-score
AGATTTTTCTCAACCGTTGTGTGCTAG: 0.716 z-score
TTAGGTTTCGACACTGGGATAGTGCTA: 2.28 z-score
GACGGTATCGGTCTCGGCACGTGCTAG: -0.0257 z-score
CTAGTTTTTACTTTCTGAATGTGCTAG: 4.45 z-score
